Results collected from several papers.
Lines come from different studies, so protocols differ. ± marks the error that the study gave.
Chain of UniProt P35372 (whole entry, looked up): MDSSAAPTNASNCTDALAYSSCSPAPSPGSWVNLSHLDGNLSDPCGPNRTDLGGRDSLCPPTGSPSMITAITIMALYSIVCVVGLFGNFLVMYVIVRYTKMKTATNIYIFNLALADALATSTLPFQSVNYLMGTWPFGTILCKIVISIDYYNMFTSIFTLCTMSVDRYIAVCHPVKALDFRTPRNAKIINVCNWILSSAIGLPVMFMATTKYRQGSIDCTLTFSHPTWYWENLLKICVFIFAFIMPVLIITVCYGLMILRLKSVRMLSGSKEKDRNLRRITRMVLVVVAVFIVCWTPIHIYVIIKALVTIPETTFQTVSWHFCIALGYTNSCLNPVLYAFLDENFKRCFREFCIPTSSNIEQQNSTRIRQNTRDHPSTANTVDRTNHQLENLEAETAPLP

Cc1ccc(C(=O)OC(C)C)c(N2CCN(Cc3ccccc3OC(F)F)CC2)n1  IC50 (Mycobacterium tuberculosis; resazurin; rel knockout; 168 h, nutrient-starved): > 64 µM
CC(C)(C)OC(=O)NCCC[C@H](NC(=O)c1ccc(NCc2ccc3nc(N)nc(N)c3c2Cl)cc1)C(=O)O  MIC (Mycobacterium tuberculosis; pptH knockout): < 0.2 µM
CC[C@@H](C)[C@@H](NC(=O)[C@@H](CCCCN)NC(=O)[C@@H](CCCCN)NC(=O)[C@@H](CC(C)C)NC(=O)[C@@H](Cc1c[nH]c2ccccc12)NC(=O)CN)C(=O)NCC(=O)N[C@H](CCCCN)C(=O)N[C@H](CCCCN)C(=O)N[C@@H](C(=O)N[C@H](CCC(=O)O)C(=O)N[C@H](CCCNC(=N)N)C(=O)N[C@@H](C(=O)NCC(=O)N[C@H](CCC(N)=O)C(=O)N[C@H](Cc1c[nH]cn1)C(=O)N[C@@H](C(=O)N[C@H](CCCNC(=N)N)C(=O)N[C@H](CC(=O)O)C(=O)N[C@H](C)C(=O)N[C@@H](C(=O)N[C@@H](C(=O)N[C@H](CCC(N)=O)C(=O)N[C@@H](C(=O)N[C@@H](C(=O)NCC(=O)N[C@@H](C(=O)N[C@H](C)C(=O)N[C@H](CCC(N)=O)C(=O)N[C@H](CCC(N)=O)C(=O)N[C@H](C)C(=O)N[C@H](C)C(=O)N[C@H](CC(N)=O)C(=O)N[C@@H](C(=O)N[C@H](C)C(=O)N[C@H](C)C(=O)N[C@@H](C(=O)N[C@H](CC(C)C)C(=O)N[C@H](CCCCN)C(N)=O)[C@H](C)O)C(C)C)C(C)C)[C@H](C)CC)[C@H](C)O)[C@H](C)CC)[C@H](C)O)[C@H](C)O)C(C)C)[C@H](C)CC  MIC (Acinetobacter baumannii; broth microdilution; ATCC 19606, CAMHB): 256 µg/mL
CC[C@H](C)[C@H](NC(=O)[C@H](CCCN)NC(=O)[C@H](CC(=O)O)NC(=O)[C@H](CC(C)C)NC(=O)C(C)(CC(C)C)NC(=O)[C@@H](NC(=O)[C@H](CO)NC(=O)[C@H](Cc1ccc(O)cc1)NC(=O)[C@H](CC(=O)O)NC(=O)[C@H](CO)NC(=O)[C@@H](NC(=O)[C@H](Cc1ccccc1)NC(=O)[C@@H](NC(=O)CNC(=O)[C@H](CCC(=O)O)NC(=O)C(C)(C)NC(=O)[C@@H](N)Cc1ccc(O)cc1)[C@@H](C)O)[C@@H](C)CC)[C@@H](C)CC)C(=O)N[C@@H](Cc1c[nH]cn1)C(=O)N[C@@H](CCC(N)=O)C(=O)NC(C)(C)C(=O)N[C@@H](CC(=O)O)C(=O)N[C@@H](Cc1ccccc1)C(=O)N[C@H](C(=O)N[C@@H](CCC(=O)O)C(=O)N[C@@H](Cc1ccc(O)cc1)C(=O)N[C@@H](CCCCNC(=O)COCCOCCNC(=O)COCCOCCNC(=O)CC[C@H](NC(=O)CCCCCCCCCCCCCCCCCCC(=O)O)C(=O)O)C(=O)N[C@@H](CC(C)C)C(=O)N[C@@H](CCC(=O)O)C(=O)NCC(=O)NCC(=O)N1CCC[C@H]1C(=O)N[C@@H](CO)C(=O)N[C@@H](CO)C(=O)NCC(=O)N[C@@H](C)C(=O)N1CCC[C@H]1C(=O)N1CCC[C@H]1C(=O)N1CCC[C@H]1C(=O)N[C@@H](CO)C(N)=O)C(C)C (stereo partly drawn)  CL/F (human, plasma; subcutaneous, 25 mg, single dose, healthy volunteers): 0.325 mL/min
CCOC(=O)CC[C@@H](NC(=O)c1ccc(N(C)Cc2ccc3[nH]c(C)nc(=O)c3c2)s1)C(=O)OCC  MIC (Mycobacterium tuberculosis; pptH knockout): > 100 µM
CC(C)(C)c1ccc(-c2cncc(-c3nc4ccc5cc(C(=O)O)cc(O)c5c4[nH]3)c2)cc1  IC50 (Mycobacterium tuberculosis; resazurin; rel knockout; 168 h, nutrient-starved): 32 µM
CC[C@H](C)[C@H](NC(=O)[C@H](CO)NC(=O)[C@H](Cc1ccc(O)cc1)NC(=O)[C@H](CC(=O)O)NC(=O)[C@H](CO)NC(=O)[C@@H](NC(=O)[C@H](Cc1ccccc1)NC(=O)[C@@H](NC(=O)CNC(=O)[C@H](CCC(=O)O)NC(=O)[C@@H](C)NC(=O)[C@@H](N)Cc1ccc(O)cc1)[C@@H](C)O)[C@@H](C)CC)C(=O)N[C@@H](C)C(=O)N[C@@H](CCSC)C(=O)N[C@@H](CC(=O)O)C(=O)N[C@@H](CCCCN)C(=O)N[C@H](C(=O)N[C@@H](Cc1c[nH]cn1)C(=O)N[C@@H](CCC(N)=O)C(=O)N[C@@H](CCC(N)=O)C(=O)N[C@@H](CC(=O)O)C(=O)N[C@@H](Cc1ccccc1)C(=O)N[C@H](C(=O)N[C@@H](CC(N)=O)C(=O)N[C@@H](Cc1c[nH]c2ccccc12)C(=O)N[C@@H](CC(C)C)C(=O)N[C@@H](CC(C)C)C(=O)N[C@@H](C)C(=O)N[C@@H](CCC(N)=O)C(=O)N[C@@H](CCCCN)C(=O)N1CCC[C@H]1C(=O)N[C@@H](CO)C(=O)N[C@@H](CO)C(=O)NCC(=O)N[C@@H](C)C(=O)N1CCC[C@H]1C(=O)N1CCC[C@H]1C(=O)N1CCC[C@H]1C(=O)N[C@@H](CO)C(N)=O)C(C)C)[C@@H](C)CC  IL-6 (HF-STZ diabetic mouse, plasma; continuous infusion, 100 nmol/kg/day, 4 weeks): 25.6 ± 7.6 pg/mL
CC[C@H](C)[C@H](NC(=O)[C@H](CC(C)C)NC(=O)[C@H](Cc1c[nH]c2ccccc12)NC(=O)[C@H](CCC(N)=O)NC(=O)[C@@H](NC(=O)[C@H](Cc1ccccc1)NC(=O)[C@H](C)NC(=O)[C@H](CCCCNC(=O)COCCOCCNC(=O)COCCOCCNC(=O)CC[C@H](NC(=O)CCCCCCCCCCCCCCCCCCC(=O)O)C(=O)O)NC(=O)[C@H](CCC(N)=O)NC(=O)[C@H](C)NC(=O)[C@@H](NC(=O)[C@H](CCCCN)NC(=O)[C@H](CC(=O)O)NC(=O)[C@H](CC(C)C)NC(=O)C(C)(C)NC(=O)[C@@H](NC(=O)[C@H](CO)NC(=O)[C@H](Cc1ccc(O)cc1)NC(=O)[C@H](CC(=O)O)NC(=O)[C@H](CO)NC(=O)[C@@H](NC(=O)[C@H](Cc1ccccc1)NC(=O)[C@@H](NC(=O)CNC(=O)[C@H](CCC(=O)O)NC(=O)C(C)(C)NC(=O)[C@@H](N)Cc1ccc(O)cc1)[C@@H](C)O)[C@@H](C)O)[C@@H](C)CC)[C@@H](C)CC)C(C)C)C(=O)N[C@@H](C)C(=O)NCC(=O)NCC(=O)N1CCC[C@H]1C(=O)N[C@@H](CO)C(=O)N[C@@H](CO)C(=O)NCC(=O)N[C@@H](C)C(=O)N1CCC[C@H]1C(=O)N1CCC[C@H]1C(=O)N1CCC[C@H]1C(=O)N[C@@H](CO)C(N)=O  ALT (DIO male Wistar rats, serum; dose not given, 10 weeks, fasted): 23 ± 2 U/L
CN[C@@H]1[C@H](O)[C@H](NC)[C@H]2O[C@]3(O)[C@H](O[C@@H]2[C@H]1O)O[C@H](C)C[C@H]3NC(=O)Cc1cc(Cl)ccn1  MIC (Mycobacterium tuberculosis): 0.8 µg/mL
CNC1C(O)C(NC)C2OC3(O)C(OC(C)C[C@H]3NC(=O)Cc3ccccc3)OC2C1O.Cl.Cl (stereo partly drawn)  MIC (Mycobacterium tuberculosis; H37Rv Rv1258c knockout, 7H9 broth; 7 days): 1.6 µg/mL
CN[C@@H]1[C@H](O)[C@H](NC)[C@H]2O[C@]3(O)[C@H](O[C@@H]2[C@H]1O)O[C@H](C)C[C@H]3NC(=O)Cc1ccccc1  MIC (Mycobacterium tuberculosis): 0.75 to 1.5 µg/mL
N=C1C(=Cc2ccc(SCc3ccc(Cl)cc3)o2)C(=O)N=C2SC(c3cccs3)=NN12  IC50 (Mycobacterium tuberculosis; resazurin; rel knockout; 168 h, nutrient-starved): > 128 µM
CN[C@@H]1[C@H](O)[C@H](NC)[C@H]2O[C@]3(O)[C@H](O[C@@H]2[C@H]1O)O[C@H](C)C[C@H]3NC(=O)Cc1ccccn1  MIC (Mycobacterium tuberculosis): 3.2 µg/mL
CCCCCCCCCCCCCCCC(=O)N[C@@H](CCC(=O)NCCOCCOCCC(=O)NCCOCCOCCC(=O)NCCCC[C@H](NC(=O)[C@H](CC(=O)O)NC(=O)[C@H](CC(C)C)NC(=O)[C@H](Cc1ccc(O)cc1)NC(=O)[C@H](CCCCN)NC(=O)[C@H](CO)NC(=O)[C@H](Cc1ccc(O)cc1)NC(=O)[C@H](CC(=O)O)NC(=O)[C@H](CO)NC(=O)[C@@H](NC(=O)[C@H](Cc1ccccc1)NC(=O)[C@@H](NC(=O)CNC(=O)[C@H](CCC(N)=O)NC(=O)[C@@H](CO)NC(=O)[C@@H](N)Cc1c[nH]cn1)[C@@H](C)O)[C@@H](C)O)C(=O)N[C@@H](CCCNC(=N)N)C(=O)N[C@@H](CCCNC(=N)N)C(=O)N[C@@H](C)C(=O)N[C@@H](CCC(N)=O)C(=O)N[C@@H](CC(=O)O)C(=O)N[C@@H](Cc1ccccc1)C(=O)N[C@H](C(=O)N[C@@H](CCC(N)=O)C(=O)N[C@@H](Cc1c[nH]c2ccccc12)C(=O)N[C@@H](CC(C)C)C(=O)N[C@@H](CC(C)C)C(=O)N[C@@H](CC(N)=O)C(=O)N[C@H](C(=O)NCC(=O)NCC(=O)N1CCC[C@H]1C(=O)N[C@@H](CO)C(=O)N[C@@H](CO)C(=O)NCC(=O)N[C@@H](C)C(=O)N1CCC[C@H]1C(=O)N1CCC[C@H]1C(=O)N1CCC[C@H]1C(=O)N[C@@H](CO)C(N)=O)[C@@H](C)O)C(C)C)C(=O)O  half-life (rhesus monkey, plasma; subcutaneous, 60 µg/kg, single dose): 2.47 h
COC(=O)[C@H](CCCNC(=O)OC(C)(C)C)NC(=O)c1ccc(NCc2ccc3nc(N)nc(N)c3c2Cl)cc1  MIC (Mycobacterium tuberculosis; pptH knockout): < 0.1 µM
CNC1C(O)C(NC)C2OC3(O)C(OC(C)C[C@H]3NC(=O)Cc3cscn3)OC2C1O.Cl.Cl (stereo partly drawn)  MIC (Mycobacterium tuberculosis; H37Rv Rv1258c knockout, 7H9 broth; 7 days): 6.3 µg/mL
CC(C)C[C@H](NC(=O)[C@H](CO[C@@H]1O[C@H](CO)[C@@H](O[C@@H]2O[C@H](CO)[C@H](O)[C@H](O)[C@H]2O)[C@H](O)[C@H]1O)NC(=O)[C@H](CCCCN)NC(=O)[C@H](CC(C)C)NC(=O)[C@H](C)NC(=O)[C@H](CCCCN)NC(=O)[C@H](CCC(=O)O)NC(=O)CNC(=O)[C@H](CC(C)C)NC(=O)[C@H](CC(N)=O)NC(=O)[C@@H]1CCCN1C(=O)[C@H](CC(C)C)NC(=O)[C@H](Cc1ccccc1)NC(=O)CNC(=O)[C@H](NC(=O)[C@@H](N)Cc1ccc(O)cc1)[C@H](C)O)C(N)=O  Ki (OPRM1 (Homo sapiens, UniProt P35372); radioligand displacement; CHO membranes; 60 min, pH 7.5, 25 °C, together with: 0.25 nM [3H]DAMGO): 0.0098 ± 0.00097 µM
Fc1cccc(CN2CCN(c3ccccc3)CC2)c1OCC1CC1  IC50 (Mycobacterium tuberculosis; resazurin; rel knockout; 168 h, nutrient-starved): > 64 µM

For quick reference, copied from above:
COC(=O)[C@H](CCCNC(=O)OC(C)(C)C)NC(=O)c1ccc(NCc2ccc3nc(N)nc(N)c3c2Cl)cc1  MIC (Mycobacterium tuberculosis; pptH knockout): < 0.1 µM
CNC1C(O)C(NC)C2OC3(O)C(OC(C)C[C@H]3NC(=O)Cc3cscn3)OC2C1O.Cl.Cl (stereo partly drawn)  MIC (Mycobacterium tuberculosis; H37Rv Rv1258c knockout, 7H9 broth; 7 days): 6.3 µg/mL
